{"data": "Assay results gathered from unrelated publications", "note": "Values joined by “and” are separate records of one study, mostly repeats; a detail may differ. ± gives the spread as reported.", "UniProt Q4U2R8, sequence (whole entry, looked up)": "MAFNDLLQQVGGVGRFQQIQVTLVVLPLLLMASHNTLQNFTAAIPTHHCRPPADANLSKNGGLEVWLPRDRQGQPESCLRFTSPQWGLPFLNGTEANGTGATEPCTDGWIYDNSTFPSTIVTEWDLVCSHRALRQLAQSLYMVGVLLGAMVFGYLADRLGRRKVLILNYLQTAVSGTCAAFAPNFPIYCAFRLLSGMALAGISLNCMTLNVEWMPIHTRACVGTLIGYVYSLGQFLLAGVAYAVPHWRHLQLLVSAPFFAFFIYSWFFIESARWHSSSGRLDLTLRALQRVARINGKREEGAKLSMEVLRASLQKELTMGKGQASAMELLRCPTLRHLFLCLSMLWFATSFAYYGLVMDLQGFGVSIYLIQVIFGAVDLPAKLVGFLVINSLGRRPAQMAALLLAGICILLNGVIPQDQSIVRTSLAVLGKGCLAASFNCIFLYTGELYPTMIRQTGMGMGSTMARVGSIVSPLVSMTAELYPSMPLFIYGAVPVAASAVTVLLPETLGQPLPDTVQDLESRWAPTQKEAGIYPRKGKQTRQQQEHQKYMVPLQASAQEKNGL"}
{"Compound": "CC[C@H](C)[C@H](NC(=O)[C@H](CCCCN)NC(=O)CNC(=O)[C@H](CC(C)C)NC(=O)[C@H](Cc1ccccc1)NC(=O)[C@H](CCCCN)NC(=O)[C@H](CO)NC(=O)[C@H](Cc1ccccc1)NC(=O)[C@H](Cc1c[nH]c2ccccc12)NC(=O)[C@H](CCC(N)=O)NC(=O)[C@@H](NC(=O)[C@H](Cc1ccccc1)NC(=O)CCCCCNC(=O)CN1CCN(CC(=O)O)CCN(CC(=O)O)CCN(CC(=O)O)CC1)C(C)C)C(=O)N[C@@H](CCC(=O)O)C(=O)N1CCC[C@H]1C(=O)N[C@@H](CC(=O)O)C(=O)N[C@H](C(=O)N[C@@H](CO)C(=O)N[C@@H](CCC(N)=O)C(=O)N[C@H](C(=O)N[C@@H](CCC(N)=O)C(=O)N[C@@H](CC(=O)O)C(=O)N1CCC[C@H]1C(=O)N[C@@H](CC(N)=O)C(=O)N[C@@H](CC(=O)O)C(=O)N[C@@H](CCC(N)=O)C(=O)N[C@@H](Cc1ccc(O)cc1)C(=O)N[C@@H](CCC(=O)O)C(=O)N1CCC[C@H]1C(=O)N[C@@H](Cc1ccccc1)C(=O)O)C(C)C)C(C)C [copper-64 labelled]", "test": "dynamic PET", "test system": "mouse both sexes, CT26 tumour, checkpoint inhibitor-treated, tumour", "setting": "intravenous, 100 µCi/mouse, 990 s", "quantity": "SUVmean", "result": "4.01 SUV"}
{"Compound": "Cc1ccc(OCCN(C)C)cc1C(=O)N[C@H](C)c1cc(-c2cccs2)nc2ccccc12", "tested on": "Vero E6", "setting": "7.812 µM", "quantity": "viability", "result": "93.1% and 90.4%"}
{"Compound": "CC(=O)NCCCC[C@@H]1NC(=O)[C@H](Cc2c[nH]c3c(C)cccc23)NC(=O)[C@H]([C@@H](C)O)NC(=O)[C@H](CC(N)=O)NC(=O)[C@@H](NC(C)=O)C(C)(C)SSC(C)(C)[C@@H](C(=O)N[C@@H](Cc2ccc(OCCN)cc2)C(=O)N[C@@H](Cc2ccc3ccccc3c2)C(=O)NC2(C(=O)N[C@@H](CCC(=O)O)C(=O)N[C@@H](CC(N)=O)C(=O)N[C@@H](Cc3cccnc3)C(=O)N(C)CC(N)=O)CCOCC2)NC1=O", "tested on": "SLC22A6 (Homo sapiens, UniProt Q4U2R8)", "test": "substrate", "test system": "HEK293 expressing SLC22A6", "setting": "5 µM, 30 min", "quantity": "uptake rate", "result": "0.186 ± 0.013 pmol/mg/min"}
{"Compound": "CN(C)c1ccc(-c2nc3ccccc3n2CCCOc2ccccc2)cc1", "tested on": "Ba/F3", "test": "cytotoxicity", "setting": "3 days", "quantity": "IC50", "result": "> 1.25 µM"}
{"Compound": "O=C1NC2(CC2)COc2ncc(F)cc2[C@H]2COCCN2c2ccn3ncc1c3n2", "test system": "Sprague-Dawley rat, female, ovaries", "setting": "oral, 20 mg/kg/day, 4 weeks, end of treatment", "quantity": "organ-to-body weight ratio", "result": "0.041 ± 0.006%"}
{"Compound": "CN(C)CCCNC(=O)[C@@H]1NC(=O)[C@@H]2Cc3ccc(cc3)Oc3cc4cc(c3O)-c3ccc5c(c[nH]c5c3)C[C@@H](NC(=O)C(NC(=O)CCCCCN)c3ccc(O)cc3)C(=O)N[C@H](c3ccc(O)cc3)C(=O)N[C@H]4C(=O)N[C@@H](C(=O)N2C)c2ccc(cc2)Oc2cc1ccc2O (stereo partly drawn)", "tested on": "human red blood cells", "setting": "512 µg/mL, 1 h, 37 °C, 1% DMSO", "quantity": "hemolysis", "result": "0%"}
{"Compound": "CCn1ccc(-c2cc([C@@H](C)NC(=O)c3cc(N4CCN(C)CC4)ccc3C)c3ccccc3n2)n1", "tested on": "Vero E6", "setting": "3.906 µM", "quantity": "viability", "result": "94.5% and 97.5% and 98.2%"}
{"Compound": "CN1CC[C@]23c4c5ccc(O)c4O[C@H]2[C@H](O)C=C[C@@]3(O)[C@H]1C5", "test": "PAMPA-BBB", "test system": "porcine brain lipid", "setting": "500 µM, 4 h, pH 7.4, 1% DMSO", "quantity": "Papp", "result": "4.15 ×10⁻⁶ cm/s"}
{"Compound": "CCn1ccc(-c2cc([C@@H](C)NC(=O)c3cc(N4CCN(C)[C@H](C)C4)ccc3C)c3ccccc3n2)n1", "tested on": "Vero E6", "setting": "125 µM", "quantity": "viability", "result": "1.43% and 0.716%"}
{"Compound": "Cc1nc2cccc(OCC(C)(C)C(=O)NC(C)C)c2c(N)c1C(=O)[O-].[Na+]", "tested on": "Salmonella typhimurium", "test": "Ames preincubation", "test system": "TA1535", "setting": "0.13 mg/plate, added: with rat liver S9", "quantity": "revertant colonies", "result": "14 ± 1 colonies/plate"}
{"Compound": "Cc1ccc(OC[C@@H]2CCN2C)cc1C(=O)N[C@H](C)c1cc(-c2cnn(C)c2)nc2ccccc12", "tested on": "Vero E6", "setting": "250 µM", "quantity": "viability", "result": "1.27%"}
{"Compound": "NC[C@]1(CC(=O)O)CC[C@@H]([18F])CC1", "test": "PET, one-tissue compartment model", "test system": "rhesus monkey, amygdala", "setting": "intravenous", "quantity": "K1", "result": "0.001 mL/min/cm3"}
{"note": "Excerpt of the above:"}
{"Compound": "CC(=O)NCCCC[C@@H]1NC(=O)[C@H](Cc2c[nH]c3c(C)cccc23)NC(=O)[C@H]([C@@H](C)O)NC(=O)[C@H](CC(N)=O)NC(=O)[C@@H](NC(C)=O)C(C)(C)SSC(C)(C)[C@@H](C(=O)N[C@@H](Cc2ccc(OCCN)cc2)C(=O)N[C@@H](Cc2ccc3ccccc3c2)C(=O)NC2(C(=O)N[C@@H](CCC(=O)O)C(=O)N[C@@H](CC(N)=O)C(=O)N[C@@H](Cc3cccnc3)C(=O)N(C)CC(N)=O)CCOCC2)NC1=O", "tested on": "SLC22A6 (Homo sapiens, UniProt Q4U2R8)", "test": "substrate", "test system": "HEK293 expressing SLC22A6", "setting": "5 µM, 30 min", "quantity": "uptake rate", "result": "0.186 ± 0.013 pmol/mg/min"}
{"Compound": "CN1CC[C@]23c4c5ccc(O)c4O[C@H]2[C@H](O)C=C[C@@]3(O)[C@H]1C5", "test": "PAMPA-BBB", "test system": "porcine brain lipid", "setting": "500 µM, 4 h, pH 7.4, 1% DMSO", "quantity": "Papp", "result": "4.15 ×10⁻⁶ cm/s"}
